# Published values gathered from unrelated publications.
# Protocols differ between the studies behind these lines. ± gives the spread as reported.
# Tripartite terminase subunit 3 C-terminal nuclease domain: Tripartite terminase subunit 3, C-terminal nuclease domain (Human betaherpesvirus 5, UniProt P16732)
# Chain of UniProt P16732 (whole entry, looked up): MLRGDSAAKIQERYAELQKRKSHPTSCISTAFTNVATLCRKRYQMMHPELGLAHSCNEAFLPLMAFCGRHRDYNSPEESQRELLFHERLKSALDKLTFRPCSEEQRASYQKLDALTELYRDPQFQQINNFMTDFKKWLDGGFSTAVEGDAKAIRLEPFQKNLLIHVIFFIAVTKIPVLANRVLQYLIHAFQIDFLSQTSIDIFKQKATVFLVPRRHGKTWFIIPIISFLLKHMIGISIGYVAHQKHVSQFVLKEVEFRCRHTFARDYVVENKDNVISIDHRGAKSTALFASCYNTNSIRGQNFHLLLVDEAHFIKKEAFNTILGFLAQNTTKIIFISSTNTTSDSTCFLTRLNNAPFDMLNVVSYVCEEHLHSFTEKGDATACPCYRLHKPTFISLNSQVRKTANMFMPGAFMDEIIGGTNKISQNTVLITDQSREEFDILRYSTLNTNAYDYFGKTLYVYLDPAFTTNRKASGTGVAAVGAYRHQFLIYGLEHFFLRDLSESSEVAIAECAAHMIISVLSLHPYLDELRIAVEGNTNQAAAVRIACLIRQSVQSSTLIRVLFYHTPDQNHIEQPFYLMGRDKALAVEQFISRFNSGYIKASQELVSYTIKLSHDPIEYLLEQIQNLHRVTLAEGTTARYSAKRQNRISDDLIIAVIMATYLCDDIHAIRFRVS
# IGHG1: Immunoglobulin heavy constant gamma 1 (IGHG1, Homo sapiens, UniProt P01857)
# Chain of UniProt P25021 (whole entry, looked up): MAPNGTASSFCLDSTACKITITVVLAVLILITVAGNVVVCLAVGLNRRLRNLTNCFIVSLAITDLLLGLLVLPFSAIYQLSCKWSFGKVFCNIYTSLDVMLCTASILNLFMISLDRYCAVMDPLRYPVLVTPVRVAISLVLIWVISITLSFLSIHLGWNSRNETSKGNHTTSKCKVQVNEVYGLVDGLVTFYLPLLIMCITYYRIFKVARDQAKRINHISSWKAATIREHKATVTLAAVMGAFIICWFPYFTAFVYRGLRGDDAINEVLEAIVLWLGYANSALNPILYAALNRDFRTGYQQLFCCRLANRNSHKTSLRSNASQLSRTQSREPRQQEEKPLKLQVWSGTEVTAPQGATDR
# Chain of UniProt P0AC78 (whole entry, looked up): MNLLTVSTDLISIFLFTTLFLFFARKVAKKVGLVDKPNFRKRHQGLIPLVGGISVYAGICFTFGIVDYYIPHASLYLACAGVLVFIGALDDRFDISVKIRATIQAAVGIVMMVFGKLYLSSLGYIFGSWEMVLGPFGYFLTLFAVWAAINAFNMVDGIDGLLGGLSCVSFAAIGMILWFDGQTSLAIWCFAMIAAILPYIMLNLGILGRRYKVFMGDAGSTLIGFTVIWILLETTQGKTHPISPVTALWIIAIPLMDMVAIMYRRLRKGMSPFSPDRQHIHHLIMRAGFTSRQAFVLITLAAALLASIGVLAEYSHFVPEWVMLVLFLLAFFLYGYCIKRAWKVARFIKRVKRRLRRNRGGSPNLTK
# Chain of UniProt Q01726 (whole entry, looked up): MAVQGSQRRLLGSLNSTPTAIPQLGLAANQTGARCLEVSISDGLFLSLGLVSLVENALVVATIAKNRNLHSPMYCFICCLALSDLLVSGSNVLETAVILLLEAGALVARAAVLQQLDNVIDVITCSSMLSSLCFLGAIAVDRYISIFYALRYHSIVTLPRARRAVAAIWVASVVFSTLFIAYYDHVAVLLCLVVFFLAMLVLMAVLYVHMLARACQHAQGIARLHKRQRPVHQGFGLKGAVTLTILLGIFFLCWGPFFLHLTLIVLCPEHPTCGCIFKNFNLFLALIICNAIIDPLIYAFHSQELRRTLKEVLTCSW
# Chain of UniProt P08575 (whole entry, looked up): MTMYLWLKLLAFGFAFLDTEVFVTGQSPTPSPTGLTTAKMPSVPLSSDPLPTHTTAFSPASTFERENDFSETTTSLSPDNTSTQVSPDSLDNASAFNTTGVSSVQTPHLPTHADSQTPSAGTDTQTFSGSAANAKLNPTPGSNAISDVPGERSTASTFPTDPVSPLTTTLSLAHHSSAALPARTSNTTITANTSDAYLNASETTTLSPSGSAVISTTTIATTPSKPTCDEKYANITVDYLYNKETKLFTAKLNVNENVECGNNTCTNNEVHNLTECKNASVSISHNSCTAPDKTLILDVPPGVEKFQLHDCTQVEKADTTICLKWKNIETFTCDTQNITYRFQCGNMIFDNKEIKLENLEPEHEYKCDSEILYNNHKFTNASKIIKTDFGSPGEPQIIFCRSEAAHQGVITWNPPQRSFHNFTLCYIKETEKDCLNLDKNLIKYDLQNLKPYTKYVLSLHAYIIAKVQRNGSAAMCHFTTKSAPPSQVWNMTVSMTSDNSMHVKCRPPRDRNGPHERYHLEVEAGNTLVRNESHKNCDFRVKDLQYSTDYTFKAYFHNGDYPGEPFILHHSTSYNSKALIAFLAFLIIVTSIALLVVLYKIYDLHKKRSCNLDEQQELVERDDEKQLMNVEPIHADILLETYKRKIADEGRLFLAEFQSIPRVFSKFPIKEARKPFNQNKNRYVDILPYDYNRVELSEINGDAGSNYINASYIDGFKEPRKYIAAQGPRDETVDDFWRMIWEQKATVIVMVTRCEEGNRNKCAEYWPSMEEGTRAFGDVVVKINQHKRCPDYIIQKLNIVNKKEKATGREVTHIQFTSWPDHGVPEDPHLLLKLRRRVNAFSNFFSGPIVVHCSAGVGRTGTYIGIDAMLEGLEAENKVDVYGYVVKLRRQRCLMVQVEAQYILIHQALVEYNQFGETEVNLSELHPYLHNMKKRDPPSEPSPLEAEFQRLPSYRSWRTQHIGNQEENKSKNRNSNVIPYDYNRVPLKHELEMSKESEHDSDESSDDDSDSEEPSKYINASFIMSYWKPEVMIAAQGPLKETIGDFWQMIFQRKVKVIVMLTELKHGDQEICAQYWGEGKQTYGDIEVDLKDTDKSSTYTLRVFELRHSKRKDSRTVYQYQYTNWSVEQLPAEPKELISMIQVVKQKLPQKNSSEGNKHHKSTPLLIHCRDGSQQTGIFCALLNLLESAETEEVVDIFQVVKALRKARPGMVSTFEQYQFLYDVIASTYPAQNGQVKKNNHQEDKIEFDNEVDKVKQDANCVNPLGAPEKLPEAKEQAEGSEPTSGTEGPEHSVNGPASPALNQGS
# Chain of UniProt P31652 (whole entry, looked up): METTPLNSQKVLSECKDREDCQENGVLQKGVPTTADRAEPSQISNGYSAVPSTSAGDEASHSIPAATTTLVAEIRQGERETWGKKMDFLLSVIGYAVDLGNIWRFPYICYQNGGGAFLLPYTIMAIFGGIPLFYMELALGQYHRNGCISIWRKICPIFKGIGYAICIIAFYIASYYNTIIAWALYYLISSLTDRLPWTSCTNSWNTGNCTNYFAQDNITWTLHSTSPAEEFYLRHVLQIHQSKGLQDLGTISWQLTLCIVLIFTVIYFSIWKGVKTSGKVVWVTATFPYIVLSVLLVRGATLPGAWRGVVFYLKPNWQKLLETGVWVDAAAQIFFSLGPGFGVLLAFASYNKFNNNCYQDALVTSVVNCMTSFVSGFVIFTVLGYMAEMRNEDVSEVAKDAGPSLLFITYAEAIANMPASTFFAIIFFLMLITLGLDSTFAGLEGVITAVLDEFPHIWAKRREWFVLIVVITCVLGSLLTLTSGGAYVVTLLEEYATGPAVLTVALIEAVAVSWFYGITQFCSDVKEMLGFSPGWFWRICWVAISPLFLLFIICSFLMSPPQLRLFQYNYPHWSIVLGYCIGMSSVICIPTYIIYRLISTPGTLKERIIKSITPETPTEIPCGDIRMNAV
# Chain of UniProt Q07889 (whole entry, looked up): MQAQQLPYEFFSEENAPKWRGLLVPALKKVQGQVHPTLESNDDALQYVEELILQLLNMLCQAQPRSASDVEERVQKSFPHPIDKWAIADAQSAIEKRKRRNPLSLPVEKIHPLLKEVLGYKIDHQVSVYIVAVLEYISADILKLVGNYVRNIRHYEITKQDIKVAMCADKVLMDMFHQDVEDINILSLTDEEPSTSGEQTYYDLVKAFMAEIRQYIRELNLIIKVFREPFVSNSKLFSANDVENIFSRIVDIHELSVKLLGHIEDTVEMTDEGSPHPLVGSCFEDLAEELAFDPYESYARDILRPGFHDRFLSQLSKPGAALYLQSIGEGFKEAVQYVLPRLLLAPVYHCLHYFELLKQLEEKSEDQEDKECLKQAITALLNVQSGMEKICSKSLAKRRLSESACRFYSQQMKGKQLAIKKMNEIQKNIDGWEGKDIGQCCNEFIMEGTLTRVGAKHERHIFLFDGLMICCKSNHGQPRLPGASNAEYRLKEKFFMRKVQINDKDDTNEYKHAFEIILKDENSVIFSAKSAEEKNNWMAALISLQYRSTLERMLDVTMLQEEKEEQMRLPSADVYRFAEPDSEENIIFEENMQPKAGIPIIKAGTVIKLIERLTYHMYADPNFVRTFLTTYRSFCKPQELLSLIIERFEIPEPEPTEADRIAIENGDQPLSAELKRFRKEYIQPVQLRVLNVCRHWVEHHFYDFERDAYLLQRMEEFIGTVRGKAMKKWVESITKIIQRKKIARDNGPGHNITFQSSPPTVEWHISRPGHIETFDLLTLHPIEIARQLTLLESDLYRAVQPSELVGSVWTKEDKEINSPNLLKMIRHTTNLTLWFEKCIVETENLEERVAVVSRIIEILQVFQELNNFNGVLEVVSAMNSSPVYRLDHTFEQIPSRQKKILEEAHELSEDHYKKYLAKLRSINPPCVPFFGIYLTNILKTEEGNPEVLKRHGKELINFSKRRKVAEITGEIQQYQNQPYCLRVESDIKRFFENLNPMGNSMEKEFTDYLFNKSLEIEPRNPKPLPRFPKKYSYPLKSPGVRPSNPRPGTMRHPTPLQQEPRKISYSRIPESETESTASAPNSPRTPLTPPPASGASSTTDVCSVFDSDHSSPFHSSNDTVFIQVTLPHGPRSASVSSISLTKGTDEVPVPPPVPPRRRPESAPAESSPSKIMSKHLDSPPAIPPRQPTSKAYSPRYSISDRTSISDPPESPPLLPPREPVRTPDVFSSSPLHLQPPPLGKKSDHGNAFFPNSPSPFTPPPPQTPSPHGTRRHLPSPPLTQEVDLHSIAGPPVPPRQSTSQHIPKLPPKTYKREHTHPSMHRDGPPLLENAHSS
SMILES,tested on,assay,system,conditions,how to read,quantity,value
COc1cc2c(cc1OC)C1CC(=O)C(CC(C)C)CN1CC2 (racemic),"Slc18a2 (Rattus norvegicus, UniProt Q01827)",radioligand binding,rat striatal homogenate,together with: [3H]-(±)-cpd,,Ki,0.0013 ± 0.0001 µM
COc1ccc(-c2ccc(Sc3cc(=O)n(O)c(=O)[nH]3)cc2)cc1,Tripartite terminase subunit 3 C-terminal nuclease domain,"endonuclease activity, ELISA",,,,IC50,34 ± 1.3 µM
O=C(N[C@H](Cc1ccc(Cl)cc1)C(=O)N1CCC(Cn2cncn2)(C2CCCCC2)CC1)[C@H]1Cc2ccccc2CN1,"MC1R (Homo sapiens, UniProt Q01726)","cAMP production, agonist",A-375,,,EC50,0.95 ± 0.025 µM
CC[C@H](C)[C@H](NC(=O)[C@H](CCCCN)NC(=O)[C@H](CCC(N)=O)NC(=O)[C@H](Cc1ccccc1)NC(=O)[C@@H](NC(=O)[C@H](CCCCN)NC(=O)[C@H](CCCCN)NC(=O)[C@H](CC(C)C)NC(=O)[C@H](C)NC(=O)[C@H](CC(N)=O)NC(=O)[C@@H](N)CC(C)C)C(C)C)C(=O)N[C@@H](Cc1c[nH]cn1)C(=O)N[C@@H](CCC(=O)O)C(=O)N[C@@H](C)C(N)=O,Staphylococcus aureus,,"MW2, resistant","18 h, 37 °C",,MIC,16 µM
C[C@H]1[C@@H](CC(C[C@H]2O[C@@H]3C[C@]4(C)CC[C@H]5[C@H](C)CC[C@@H]([C@H]2C)[C@@]35OO4)CS(=O)(=O)Cc2ccc(F)cc2)O[C@@H]2C[C@]3(C)CC[C@H]4[C@H](C)CC[C@@H]1[C@@]24OO3 (stereo partly shown),Plasmodium berghei,,"ANKA, infected mice","oral, 54 mg/kg single dose, 24 h post-infection",,mean survival time,14.6 days
CCCC[C@H]1NC(=O)[C@H](Cc2ccc(F)cc2)NC(=O)[C@H](CCCNC(=N)N)NC(=O)[C@@H](Cc2ccc3ccccc3c2)NC(=O)[C@H](CCCNC(=N)N)NC(=O)[C@H](CCCNC(=N)N)NC(=O)[C@H](CCC(N)=O)NC(=O)C[C@@H](CCc2ccccc2)NC(=O)[C@@H]2CCCCN2C(=O)C(=O)C(C)(C)COC1=O,K-Ras G12V-RalGDS interaction,"protein-protein interaction, inhibitor, bead binding",,"10 µM, 60 min, together with: 0.15 µM labelled K-Ras G12V",,inhibition,inhibited
CNc1nc(N2CCN(C)CC2)c2ccccc2n1,"SOS1 (Homo sapiens, UniProt Q07889)",binding,,,,Kd,> 200 µM
COc1cc2c(c(OC)c1OC)-c1ccc(OC)c(=O)cc1[C@@H](NC(C)=O)CC2,tubulin,"tubulin polymerization, absorbance",,"10 µM, 1 h, 37 °C",baseline: untreated,Vmax change,~3.5 fold
CC(=O)N[C@@H](CC(=O)O)C(=O)N[C@H]1CSSC[C@@H](C(=O)N[C@H](C(=O)N[C@@H](Cc2ccccc2)C(=O)N[C@@H](Cc2cnc[nH]2)C(N)=O)[C@@H](C)O)NC(=O)[C@H](Cc2c[nH]c3ccccc23)NC(=O)[C@H](C(C)C)NC(=O)[C@H](CC(C)C)NC(=O)[C@H](CCC(=O)O)NC(=O)CNC(=O)[C@H](CCCCN)NC(=O)[C@H](Cc2cnc[nH]2)NC(=O)[C@H](Cc2ccc(O)cc2)NC(=O)[C@H](C)NC1=O,IGHG1,"binding, SPR",,"pH 7.4, together with: immobilized Herceptin",,Kd,0.267 ± 0.004 µM
O=P(O)(O)C(F)(F)c1ccc2occc2c1,"PTPN1 (Homo sapiens, UniProt P18031)",,,pH 7,,IC50,> 500 µM
CC(=O)NCC(=O)N1CCC[C@H]1C(=O)N[C@@H](CC(=O)O)C(=O)N[C@H]1CSSC[C@@H](C(=O)N[C@H](C(=O)N[C@@H](C)C(=O)N[C@@H](Cc2c[nH]cn2)C(N)=O)[C@@H](C)O)NC(=O)[C@H](Cc2c[nH]c3ccccc23)NC(=O)[C@H](C(C)C)NC(=O)[C@H](CC(C)C)NC(=O)[C@H](CCC(=O)O)NC(=O)CNC(=O)[C@H](CCCCN)NC(=O)[C@H](Cc2c[nH]cn2)NC(=O)[C@H](Cc2ccc(O)cc2)NC(=O)[C@H](C)NC1=O,IGHG1,"binding, SPR",,"pH 7.4, together with: immobilized Herceptin",,Kd,0.95 ± 0.004 µM
C[C@H](N)C(=O)c1ccccc1,"Slc6a4 (Rattus norvegicus, UniProt P31652)","serotonin release, releaser",rat brain synaptosomes,together with: [3H]5-HT,,EC50,4.74 µM
Cn1c(Sc2cccc(Cl)c2)cc(=O)n(O)c1=O,Tripartite terminase subunit 3 C-terminal nuclease domain,"endonuclease activity, ELISA",,,,IC50,26 ± 2.6 µM
CC(=O)N[C@H]1[C@@H](O[C@@H]2O[C@H](C[C@@H](O)[C@H]3O[C@@H](n4ccc(=O)[nH]c4=O)[C@H](O)[C@@H]3O)[C@H](O)[C@H](O)[C@H]2NC(=O)/C=C/CCCCCCCCCC(C)C)O[C@H](CO)[C@@H](O)[C@@H]1O,"Undecaprenyl-phosphate alpha-N-acetylglucosaminyl 1-phosphate transferase (wecA, Escherichia coli, UniProt P0AC78)","enzyme activity, inhibitor",,,,IC50,0.15 ± 0.008 µM
O=P(O)(O)C(F)(F)c1ccccc1,"PTPRC (Homo sapiens, UniProt P08575)",,,pH 7,,IC50,> 10000 µM
CC1(C)S[C@@H]2[C@H](NC(=O)Cc3ccccc3)C(=O)N2[C@H]1C(=O)O,"pbpG (Escherichia coli, UniProt P0AFI5)","binding, Bocillin-FL competition",Escherichia coli MG1655 live,"30 min, together with: Tris-EDTA permeabilization",,IC50,< 1000 µM
CC(=O)N[C@@H](C)C(=O)N1CCC[C@H]1C(=O)N[C@@H](CC(=O)O)C(=O)N[C@H]1CSSC[C@@H](C(=O)N[C@H](C(=O)N[C@@H](Cc2ccccc2)C(=O)N[C@@H](Cc2c[nH]cn2)C(N)=O)[C@@H](C)O)NC(=O)[C@H](Cc2c[nH]c3ccccc23)NC(=O)[C@H](C(C)C)NC(=O)[C@H](CC(C)C)NC(=O)[C@H](CCC(=O)O)NC(=O)CNC(=O)[C@H](CCCCN)NC(=O)[C@H](Cc2c[nH]cn2)NC(=O)[C@H](Cc2ccc(O)cc2)NC(=O)[C@H](C)NC1=O,IGHG1,"binding, SPR",,"pH 7.4, together with: immobilized Herceptin",,Kd,0.248 ± 0.003 µM
CCOP(=O)(OCC)Oc1nc(Cl)c(Cl)cc1Cl,"Ache (Rattus norvegicus, UniProt P37136)",inhibitor,,,,IC50,0.036 µM
CN1CC[C@]23c4c5ccc(O)c4O[C@H]2[C@@H](O)C=C[C@H]3[C@H]1C5,HEK293,"GTPγS binding, agonist",,,baseline: DAMGO,relative intrinsic efficacy,0.18
CCN(CC)C(=O)OCc1ccc(S(=O)(=O)CC(C[C@H]2O[C@@H]3C[C@]4(C)CC[C@H]5[C@H](C)CC[C@@H]([C@H]2C)[C@@]35OO4)C[C@H]2O[C@@H]3C[C@]4(C)CC[C@H]5[C@H](C)CC[C@@H]([C@H]2C)[C@@]35OO4)cc1,Plasmodium berghei,,"ANKA, infected mice","oral, 54 mg/kg single dose, 24 h post-infection",,mean survival time,16.4 days
CC(=O)NCC(=O)N1CCC[C@H]1C(=O)N[C@@H](C)C(=O)N[C@H]1CSSC[C@@H](C(=O)N[C@H](C(=O)N[C@@H](Cc2ccccc2)C(=O)N[C@@H](Cc2c[nH]cn2)C(N)=O)[C@@H](C)O)NC(=O)[C@H](Cc2c[nH]c3ccccc23)NC(=O)[C@H](C(C)C)NC(=O)[C@H](CC(C)C)NC(=O)[C@H](CCC(=O)O)NC(=O)CNC(=O)[C@H](CCCCN)NC(=O)[C@H](Cc2c[nH]cn2)NC(=O)[C@H](Cc2ccc(O)cc2)NC(=O)[C@H](C)NC1=O,IGHG1,"binding, SPR",,"pH 7.4, together with: immobilized Herceptin",,Kd,0.762 ± 0.005 µM
CC(=O)[C@H]1CC[C@H]2[C@@H]3CCC4=CC(=O)CC[C@]4(C)[C@H]3CC[C@]12C,"HRH2 (Homo sapiens, UniProt P25021)",cell-based activity,,,,IC50,25.4 µM

# A few entries again:
SMILES,tested on,assay,system,conditions,how to read,quantity,value
CC1(C)S[C@@H]2[C@H](NC(=O)Cc3ccccc3)C(=O)N2[C@H]1C(=O)O,"pbpG (Escherichia coli, UniProt P0AFI5)","binding, Bocillin-FL competition",Escherichia coli MG1655 live,"30 min, together with: Tris-EDTA permeabilization",,IC50,< 1000 µM
O=P(O)(O)C(F)(F)c1ccc2occc2c1,"PTPN1 (Homo sapiens, UniProt P18031)",,,pH 7,,IC50,> 500 µM
